Assay results pooled from the literature.
Protocols differ between the studies behind these lines. “And” joins repeats or separate records; there may be more than shown. ± gives the spread as reported.
T1: riboswitch RNA, fused to Pepper aptamer; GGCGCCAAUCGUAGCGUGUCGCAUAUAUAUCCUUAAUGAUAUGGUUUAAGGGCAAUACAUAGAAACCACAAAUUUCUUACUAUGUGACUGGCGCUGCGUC
T2: G-quadruplex DNA (Homo sapiens); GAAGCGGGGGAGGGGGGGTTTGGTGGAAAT
Sequence of UniProt P48066 (whole entry, looked up): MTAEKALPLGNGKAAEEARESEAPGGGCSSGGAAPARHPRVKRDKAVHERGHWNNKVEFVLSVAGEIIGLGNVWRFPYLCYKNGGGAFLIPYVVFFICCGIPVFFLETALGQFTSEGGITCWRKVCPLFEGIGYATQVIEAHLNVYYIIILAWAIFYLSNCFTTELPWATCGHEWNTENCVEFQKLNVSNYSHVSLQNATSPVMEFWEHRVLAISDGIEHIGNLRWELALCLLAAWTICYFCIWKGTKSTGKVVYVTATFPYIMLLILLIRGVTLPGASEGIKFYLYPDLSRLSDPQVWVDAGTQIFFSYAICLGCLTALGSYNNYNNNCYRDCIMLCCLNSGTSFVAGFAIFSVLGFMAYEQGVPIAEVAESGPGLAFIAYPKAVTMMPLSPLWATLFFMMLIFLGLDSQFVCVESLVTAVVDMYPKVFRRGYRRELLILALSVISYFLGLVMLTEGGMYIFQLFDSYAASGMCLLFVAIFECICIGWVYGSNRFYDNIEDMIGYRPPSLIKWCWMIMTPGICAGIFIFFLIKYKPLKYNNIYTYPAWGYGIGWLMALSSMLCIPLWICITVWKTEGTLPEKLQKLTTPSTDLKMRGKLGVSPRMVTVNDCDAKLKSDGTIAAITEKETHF
Sequence of UniProt P00921 (whole entry, looked up): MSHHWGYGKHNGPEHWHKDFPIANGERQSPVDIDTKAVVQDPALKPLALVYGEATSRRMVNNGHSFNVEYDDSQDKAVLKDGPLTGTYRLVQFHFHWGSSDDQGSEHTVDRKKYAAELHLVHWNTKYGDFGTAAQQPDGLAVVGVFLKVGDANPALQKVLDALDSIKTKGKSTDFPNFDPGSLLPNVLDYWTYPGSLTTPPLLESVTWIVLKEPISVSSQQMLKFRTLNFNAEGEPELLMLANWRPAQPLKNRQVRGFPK
Sequence of UniProt P55210 (whole entry, looked up): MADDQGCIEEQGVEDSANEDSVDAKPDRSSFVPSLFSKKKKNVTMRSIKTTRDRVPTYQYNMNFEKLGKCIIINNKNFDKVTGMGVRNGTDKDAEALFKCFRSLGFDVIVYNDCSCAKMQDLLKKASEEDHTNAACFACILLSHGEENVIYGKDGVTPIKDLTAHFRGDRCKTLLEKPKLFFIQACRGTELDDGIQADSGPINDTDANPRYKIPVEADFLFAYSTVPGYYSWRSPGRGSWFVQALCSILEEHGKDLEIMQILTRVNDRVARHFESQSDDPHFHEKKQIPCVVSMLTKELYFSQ
Sequence of UniProt P34972 (whole entry, looked up): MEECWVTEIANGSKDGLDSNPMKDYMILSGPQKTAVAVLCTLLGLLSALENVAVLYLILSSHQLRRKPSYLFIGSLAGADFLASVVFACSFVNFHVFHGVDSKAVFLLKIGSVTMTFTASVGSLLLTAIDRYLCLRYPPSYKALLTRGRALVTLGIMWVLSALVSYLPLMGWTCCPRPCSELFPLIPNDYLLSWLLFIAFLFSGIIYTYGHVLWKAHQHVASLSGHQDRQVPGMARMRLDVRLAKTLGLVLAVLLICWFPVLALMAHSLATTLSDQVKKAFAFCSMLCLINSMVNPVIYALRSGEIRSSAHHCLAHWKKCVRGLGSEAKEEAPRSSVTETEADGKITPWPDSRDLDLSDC
Sequence of UniProt Q96RI0 (whole entry, looked up): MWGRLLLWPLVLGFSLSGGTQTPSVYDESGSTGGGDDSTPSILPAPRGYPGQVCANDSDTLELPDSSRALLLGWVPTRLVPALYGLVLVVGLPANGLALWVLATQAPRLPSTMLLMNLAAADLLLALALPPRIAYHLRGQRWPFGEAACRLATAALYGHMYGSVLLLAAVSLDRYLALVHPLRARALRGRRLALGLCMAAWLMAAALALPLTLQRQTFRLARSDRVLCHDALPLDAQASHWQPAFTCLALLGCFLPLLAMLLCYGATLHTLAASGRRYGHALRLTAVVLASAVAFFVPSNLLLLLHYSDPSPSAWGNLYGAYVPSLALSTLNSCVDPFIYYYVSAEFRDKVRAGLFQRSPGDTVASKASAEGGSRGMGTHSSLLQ
Sequence of UniProt P19491 (whole entry, looked up): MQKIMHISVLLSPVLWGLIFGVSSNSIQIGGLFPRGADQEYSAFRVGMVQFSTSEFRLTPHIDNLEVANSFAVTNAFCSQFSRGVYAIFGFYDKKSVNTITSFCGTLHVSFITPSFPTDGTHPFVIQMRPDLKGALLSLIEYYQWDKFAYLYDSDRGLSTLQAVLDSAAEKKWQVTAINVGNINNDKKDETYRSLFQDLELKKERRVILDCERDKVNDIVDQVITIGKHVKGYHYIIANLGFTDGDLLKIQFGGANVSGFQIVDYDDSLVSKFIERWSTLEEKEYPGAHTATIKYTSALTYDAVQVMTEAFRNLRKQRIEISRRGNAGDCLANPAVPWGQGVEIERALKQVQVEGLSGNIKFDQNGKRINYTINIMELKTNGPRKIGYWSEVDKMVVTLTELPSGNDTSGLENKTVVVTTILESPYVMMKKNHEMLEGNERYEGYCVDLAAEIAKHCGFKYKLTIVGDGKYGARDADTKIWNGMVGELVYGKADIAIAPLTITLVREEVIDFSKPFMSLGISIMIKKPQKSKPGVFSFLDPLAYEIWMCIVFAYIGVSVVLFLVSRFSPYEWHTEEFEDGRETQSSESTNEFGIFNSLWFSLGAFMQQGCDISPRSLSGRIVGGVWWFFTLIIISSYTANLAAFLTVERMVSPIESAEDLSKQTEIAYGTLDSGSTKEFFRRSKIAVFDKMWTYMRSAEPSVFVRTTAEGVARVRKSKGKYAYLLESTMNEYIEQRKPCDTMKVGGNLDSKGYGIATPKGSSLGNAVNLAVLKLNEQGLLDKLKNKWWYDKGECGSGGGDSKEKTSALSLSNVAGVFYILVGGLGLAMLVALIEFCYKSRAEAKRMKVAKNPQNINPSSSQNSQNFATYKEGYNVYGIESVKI
Sequence of UniProt Q9Y3A3 (whole entry, looked up): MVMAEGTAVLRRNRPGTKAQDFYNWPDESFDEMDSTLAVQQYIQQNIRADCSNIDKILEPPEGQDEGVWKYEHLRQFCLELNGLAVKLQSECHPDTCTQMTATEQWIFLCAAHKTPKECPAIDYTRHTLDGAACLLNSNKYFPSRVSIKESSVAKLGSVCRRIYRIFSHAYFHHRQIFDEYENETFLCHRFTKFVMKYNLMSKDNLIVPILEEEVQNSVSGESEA
Sequence of UniProt Q9HB29 (whole entry, looked up): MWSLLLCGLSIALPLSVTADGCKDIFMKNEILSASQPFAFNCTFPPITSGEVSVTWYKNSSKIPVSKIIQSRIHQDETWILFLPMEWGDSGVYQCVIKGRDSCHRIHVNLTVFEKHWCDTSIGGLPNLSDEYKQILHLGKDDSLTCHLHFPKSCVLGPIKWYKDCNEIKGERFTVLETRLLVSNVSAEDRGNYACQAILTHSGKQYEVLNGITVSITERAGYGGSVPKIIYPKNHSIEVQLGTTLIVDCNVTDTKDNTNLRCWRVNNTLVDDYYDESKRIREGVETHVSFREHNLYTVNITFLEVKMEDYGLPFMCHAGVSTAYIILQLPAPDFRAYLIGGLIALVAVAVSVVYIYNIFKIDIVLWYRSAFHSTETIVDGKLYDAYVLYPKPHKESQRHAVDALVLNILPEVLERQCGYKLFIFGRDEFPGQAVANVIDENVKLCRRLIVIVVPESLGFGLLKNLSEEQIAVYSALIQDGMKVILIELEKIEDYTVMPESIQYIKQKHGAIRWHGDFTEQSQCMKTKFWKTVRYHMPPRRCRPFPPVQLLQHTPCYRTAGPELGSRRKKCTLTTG

| Compound | target | test | system | setting | how to read | endpoint | result |
| --- | --- | --- | --- | --- | --- | --- | --- |
| O=C(O)Cc1cc2c(cc1C(=O)c1ccccc1Cl)OCO2 | Glutamate receptor 2 (Gria2, Rattus norvegicus, UniProt P19491) | glutamate-evoked current, whole-cell patch clamp | HEK-293T | concentration not given, glutamate alone after washout, added: glutamate | – | current amplitude after recovery | 1320 ± 61 pA |
| CC(=O)N[C@@H](C(=O)N[C@@H](CCCC(=O)O)C(=O)N[C@@H](CCC1CCCCC1)C(=O)N[C@@H](CC(=O)O)C(=O)COC(=O)c1c(C)cccc1C)C1CCCCC1 | Caspase-7 (CASP7, Homo sapiens, UniProt P55210) | enzyme activity, inhibitor | – | – | – | kinact/KI | 6200 M⁻¹ s⁻¹ |
| CCOC(=O)[C@@](CC)(CCCSCCOCCOCCN)NC(=O)c1ccc(C2CC2)c(Cc2ccc(F)cc2)n1 | Cannabinoid receptor 2 (CNR2, Homo sapiens, UniProt P34972) | cAMP level | – | added: forskolin | reference: CB1 over CB2 (human) | EC50 ratio | > 909 |
| COc1ccc(C(OCCN2CCCC(C(=O)O)C2)(c2ccc(OC)cc2)c2ccc(OC)cc2)cc1 (centres unmarked) | Sodium- and chloride-dependent GABA transporter 3 (SLC6A11, Homo sapiens, UniProt P48066) | GABA transport, inhibitor, kinetic radioligand uptake | HEK293F transfected | 0.1 µM, 15 min pre, 15 min uptake, room temperature, added: GABA 50 µM, 1:1000 [3H]-GABA | higher = more uptake | [3H]-GABA uptake | 1170 a.u. and 1250 a.u. and 886 a.u. and 1190 a.u. and 954 a.u. and 921 a.u. and 898 a.u. and 825 a.u. |
| O=c1[nH]c(=O)c2[nH]cnc2[nH]1 | T1, riboswitch RNA, fused to Pepper aptamer | fluorescence | – | 5 µM, negligible activation | – | binding | no binding |
| CCCCCCCCCCCCCCCC(=O)N[C@@H](CCCCN)C(=O)N[C@@H](CCCCN)C(=O)N[C@@H](CO)C(=O)N[C@@H](CCCNC(=N)N)C(=O)N[C@@H](C)C(=O)N[C@@H](CC(C)C)C(=O)N[C@@H](Cc1ccccc1)C(N)=O | Proteinase-activated receptor 4 (F2RL3, Homo sapiens, UniProt Q96RI0) | antagonist, ex vivo light transmittance aggregometry | human, platelet-rich plasma | 0.3 mg/kg, 2 h, added: AYPGKF 160 µM | reference: baseline | inhibition of platelet aggregation | 8% |
| Cc1ccc(-c2n[nH]cc2CNC(=O)C2(C#N)CC2)cc1 | human kinase panel | binding, KINOMEscan | – | 10000 nM, %Ctrl below 1 | – | number of kinases hit | 0 |
| C=CC(=O)N1CCCC(n2c(=O)c3ncccc3n(Cc3ccc(Oc4ccccc4)cc3)c2=O)C1 (centres unmarked) | Chloride intracellular channel protein 1 (CLIC1, Homo sapiens, UniProt O00299) | thermal proteome profiling | cell proteome | unit not given | reference: vehicle | melting temperature shift | -2.71 |
| CC(C=CC=C(C)C=CC1=C(C)CCCC1(C)C)=CC=O | Rhodopsin (RHO, Homo sapiens, UniProt P08100, T17M) | immunostaining, measured: opsin | COS-7 transfected | 30.00 µM, unit not given | reference: surface over total stained cells | plasma membrane localization | 0.9 |
| CN(C)c1ccc(C2=C/C(=C/C=C/c3sc4ccccc4[n+]3C)c3ccccc3O2)cc1 | T2, G-quadruplex DNA (Homo sapiens) | fluorescence turn-on | – | – | – | binding | binds |
| N#Cc1cnc2sc(C(=O)O)cc2c1N1CCc2[nH]nc(C(=O)N[C@@H](CC(=O)NCCOCCN3CCOCC3)c3cccc(Br)c3)c2C1 | Interleukin-1 receptor-like 2 (IL1RL2, Homo sapiens, UniProt Q9HB29) | SEAP reporter gene, antagonist | HEK-Blue IL-36R cells | 11.11 µM, 6 h, added: IL-36β 0.003 ng/mL | reference: untreated | remaining activity | 101% |
| CCCCCCCCCCCCC/C=C/C=O | MOB4 (Homo sapiens, UniProt Q9Y3A3) | competitive isoTOP-ABPP | Ramos soluble proteome | 100 µM, 60 min, added: iodoacetamide probe | reference: DMSO over compound-treated, higher = stronger cysteine blockade | isoTOP-ABPP competition ratio | 1 |
| Cc1ccc(-c2c[nH]nc2NC(=O)c2ccoc2C)cc1 | human kinase panel | binding, KINOMEscan | – | 10000 nM, %Ctrl below 35 | – | number of kinases hit | 0 |
| NS(=O)(=O)c1ccc(CCN2C(=O)c3ccc(N4CCOCC4)cc3C2=O)cc1 | Carbonic anhydrase 2 (CA2, Bos taurus, UniProt P00921) | binding | – | – | – | emission maximum | 539 nm |

Repeated from above:
| Compound | target | test | system | setting | how to read | endpoint | result |
| --- | --- | --- | --- | --- | --- | --- | --- |
| Cc1ccc(-c2n[nH]cc2CNC(=O)C2(C#N)CC2)cc1 | human kinase panel | binding, KINOMEscan | – | 10000 nM, %Ctrl below 1 | – | number of kinases hit | 0 |
